{"data": "Experimental data of several laboratories", "note": "Each numbered part is a random draw from the data of one study; scales do not carry over between parts. pIC50, pKi: −log10 of the molar value.", "sequence of UniProt P21917 (whole entry, looked up)": "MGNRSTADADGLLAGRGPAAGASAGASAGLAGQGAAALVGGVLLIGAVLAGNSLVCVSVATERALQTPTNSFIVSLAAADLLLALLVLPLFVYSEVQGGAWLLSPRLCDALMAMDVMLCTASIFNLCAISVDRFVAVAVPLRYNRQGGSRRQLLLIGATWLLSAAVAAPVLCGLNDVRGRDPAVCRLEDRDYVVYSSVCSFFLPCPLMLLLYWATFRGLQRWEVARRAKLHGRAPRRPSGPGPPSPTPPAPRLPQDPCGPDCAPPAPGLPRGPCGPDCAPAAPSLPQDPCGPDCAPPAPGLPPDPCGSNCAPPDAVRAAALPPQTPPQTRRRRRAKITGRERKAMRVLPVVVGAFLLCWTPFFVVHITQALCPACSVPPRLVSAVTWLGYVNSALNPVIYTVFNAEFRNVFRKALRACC", "sequence of UniProt Q16832 (whole entry, looked up)": "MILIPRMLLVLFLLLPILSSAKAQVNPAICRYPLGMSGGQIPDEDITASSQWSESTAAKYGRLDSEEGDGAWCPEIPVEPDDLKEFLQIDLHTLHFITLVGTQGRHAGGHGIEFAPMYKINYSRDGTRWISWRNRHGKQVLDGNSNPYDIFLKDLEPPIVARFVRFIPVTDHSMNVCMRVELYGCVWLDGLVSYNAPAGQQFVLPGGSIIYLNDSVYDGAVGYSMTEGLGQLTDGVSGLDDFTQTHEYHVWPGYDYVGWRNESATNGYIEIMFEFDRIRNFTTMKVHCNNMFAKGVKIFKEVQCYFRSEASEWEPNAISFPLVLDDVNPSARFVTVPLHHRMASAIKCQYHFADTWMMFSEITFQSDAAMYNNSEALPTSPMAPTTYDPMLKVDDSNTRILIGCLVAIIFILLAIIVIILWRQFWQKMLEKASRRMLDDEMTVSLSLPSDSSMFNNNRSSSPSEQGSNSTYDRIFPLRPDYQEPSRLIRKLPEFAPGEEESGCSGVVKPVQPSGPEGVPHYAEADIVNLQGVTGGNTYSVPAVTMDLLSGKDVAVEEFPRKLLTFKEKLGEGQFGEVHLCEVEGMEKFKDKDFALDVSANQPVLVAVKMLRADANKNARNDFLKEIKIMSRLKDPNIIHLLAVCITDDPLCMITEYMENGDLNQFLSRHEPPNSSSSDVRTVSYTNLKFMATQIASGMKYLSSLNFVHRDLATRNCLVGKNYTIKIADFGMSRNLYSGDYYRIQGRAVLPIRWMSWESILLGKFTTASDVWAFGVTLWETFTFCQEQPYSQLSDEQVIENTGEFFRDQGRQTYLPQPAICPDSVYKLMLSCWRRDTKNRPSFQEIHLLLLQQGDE"}
{"data": "Set 1", "read-out": "AlphaScreen signal", "technique": "AlphaScreen counter screen", "matrix": "His6 peptide without bromodomain", "concentration": "50 µM", "setting": "assay interference check"}
{"Structure (SMILES)": "C=CCc1cccc(C=NCCS(=O)(=O)O)c1O", "inhibition [%]": 16.2}
{"Structure (SMILES)": "O=c1[nH]cnc2scc(-c3ccc(Cl)cc3)c12", "inhibition [%]": 78.9}
{"Structure (SMILES)": "Cc1cc(Nc2nc(N[C@@H](C)c3ncc(F)cn3)ncc2Cl)n[nH]1", "inhibition [%]": 6.4}
{"Structure (SMILES)": "O=c1[nH]ccc2c(S(=O)(=O)N3CCCNCC3)cccc12", "inhibition [%]": 1.75}
{"Structure (SMILES)": "COc1ccc(-c2nnc3ccc(SCC(=O)Nc4cccc(Cl)c4)nn23)cc1OC", "inhibition [%]": 26.6}
{"Structure (SMILES)": "C[S+]([O-])c1ccc(CSc2nc(-c3ccc(F)cc3)c(-c3ccncc3)[nH]2)cc1 (centres unmarked)", "inhibition [%]": 11.2}
{"Structure (SMILES)": "O=C1NC(=O)C(c2c[nH]c3ccccc23)=C1c1c[nH]c2ccccc12", "inhibition [%]": 78.7}
{"Structure (SMILES)": "NS(=O)(=O)c1ccc(NN=C2C(=O)Nc3ccc(Br)cc32)cc1", "inhibition [%]": 22.2}
{"Structure (SMILES)": "O=S(=O)(NCCNCC=Cc1ccc(Br)cc1)c1cccc2cnccc12", "inhibition [%]": 16.4}
{"Structure (SMILES)": "c1ccc(-c2cnc3c(N4CCOCC4)nccn23)cc1", "inhibition [%]": 13.7}
{"Structure (SMILES)": "COc1ccc(-c2[nH]c3ncccc3c2CN2CCN(C)CC2)cc1", "inhibition [%]": 14.5}
{"Structure (SMILES)": "O=C(O)CCC(=O)Nc1ccccc1-c1nc2ccccc2[nH]c1=O", "inhibition [%]": 9.55}
{"Structure (SMILES)": "Cn1cc(C=C(C#N)c2nc3ccccc3s2)cn1", "inhibition [%]": 11.8}
{"Structure (SMILES)": "Cc1nc2ccccn2c1-c1csc(Nc2ccc(S(N)(=O)=O)cc2)n1", "inhibition [%]": -1.7}
{"Structure (SMILES)": "Cc1ccnc(Nc2nc(-c3sc(N)nc3C)cs2)c1", "inhibition [%]": 90.1}
{"Structure (SMILES)": "CC(C)(C)n1nc(-c2cccc3ccccc23)c2c(N)ncnc21", "inhibition [%]": 12.3}
{"Structure (SMILES)": "COc1ccc(-c2nnc3ccc(SCC(=O)N4CCCCCC4)nn23)cc1OC", "inhibition [%]": 10.1}
{"data": "Set 2", "target": "Serine/threonine-protein kinase D3 (PRKD3, Homo sapiens, UniProt O94806)", "read-out": "enzyme activity", "action": "inhibitor", "concentration": "0.5 µM", "baseline": "control", "sequence of UniProt O94806 (whole entry, looked up)": "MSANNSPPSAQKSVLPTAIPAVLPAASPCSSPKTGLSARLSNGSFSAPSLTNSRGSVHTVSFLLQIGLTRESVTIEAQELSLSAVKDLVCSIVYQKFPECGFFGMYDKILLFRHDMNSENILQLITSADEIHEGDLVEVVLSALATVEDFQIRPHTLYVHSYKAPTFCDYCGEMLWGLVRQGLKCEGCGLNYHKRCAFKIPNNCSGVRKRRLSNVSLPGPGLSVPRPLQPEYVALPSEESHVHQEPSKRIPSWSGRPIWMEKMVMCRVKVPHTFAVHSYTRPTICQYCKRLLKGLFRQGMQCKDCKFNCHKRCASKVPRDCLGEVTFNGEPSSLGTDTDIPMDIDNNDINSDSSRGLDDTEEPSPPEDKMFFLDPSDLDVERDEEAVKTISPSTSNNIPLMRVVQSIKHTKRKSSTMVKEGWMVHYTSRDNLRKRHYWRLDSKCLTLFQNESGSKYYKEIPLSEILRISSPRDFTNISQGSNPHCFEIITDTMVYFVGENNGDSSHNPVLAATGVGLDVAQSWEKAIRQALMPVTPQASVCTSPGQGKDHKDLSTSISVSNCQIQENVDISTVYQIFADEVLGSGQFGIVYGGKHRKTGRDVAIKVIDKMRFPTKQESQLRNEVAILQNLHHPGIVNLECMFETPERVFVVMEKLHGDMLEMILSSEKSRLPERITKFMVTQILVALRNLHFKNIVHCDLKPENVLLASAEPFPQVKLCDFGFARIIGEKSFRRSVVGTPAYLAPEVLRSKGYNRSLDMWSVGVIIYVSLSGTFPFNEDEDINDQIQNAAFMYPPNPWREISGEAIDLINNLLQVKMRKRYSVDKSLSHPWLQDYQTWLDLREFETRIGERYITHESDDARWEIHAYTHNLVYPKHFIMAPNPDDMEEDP"}
{"Structure (SMILES)": "Nc1nc(Nc2ccc(S(N)(=O)=O)cc2)nn1C(=S)Nc1c(F)cccc1F", "remaining activity [%]": 7.37}
{"Structure (SMILES)": "CC(C)(C)c1nc2c3cc[nH]c(=O)c3c3cc(F)ccc3c2[nH]1", "remaining activity [%]": 10.8}
{"Structure (SMILES)": "N#C/C(=C(/N)SC1C=CC=CC1)c1cccc(C(O)c2ccncc2)c1 (centres unmarked)", "remaining activity [%]": 96.3}
{"Structure (SMILES)": "O=Nc1c(-c2c(O)[nH]c3ccccc23)[nH]c2ccccc12", "remaining activity [%]": 88.4}
{"Structure (SMILES)": "CC(C)N(CCC(=O)c1ccc2ccccc2c1)Cc1ccccc1", "remaining activity [%]": 98.1}
{"Structure (SMILES)": "CCCCc1c(-c2ccc(O)cc2)[nH]c2nccnc12", "remaining activity [%]": 67.4}
{"Structure (SMILES)": "O=C1NC(=O)/C(=C/c2ccc3c(c2)OC(F)(F)O3)S1", "remaining activity [%]": 91.4}
{"Structure (SMILES)": "NC(=O)c1cccc(-c2cc(Nc3ccc(OC(F)(F)F)cc3)ncn2)c1", "remaining activity [%]": 93.2}
{"Structure (SMILES)": "CC(C)n1cnc2c(Nc3cccc(Cl)c3)nc(NCCO)nc21", "remaining activity [%]": 88.4}
{"Structure (SMILES)": "O=C1c2ccccc2-c2nc3nnnn3nc21", "remaining activity [%]": 83.4}
{"Structure (SMILES)": "O=C(c1ccccc1)c1ccc(N2CCOCC2)cc1O", "remaining activity [%]": 96.1}
{"data": "Set 3", "host": "human", "matrix": "microsomes or S9", "concentration": "2 µM", "time": "0.5 h"}
{"Compound": "CC(C)CN/C(=N/S(=O)(=O)c1ccccc1)c1ccccc1", "remaining compound [%]": 86.8}
{"Compound": "CCc1c(C)nc2cc(-c3cc(OC)cc(OC)c3)nn2c1NCCN(CC)CC", "remaining compound [%]": 30.6}
{"Compound": "COC(=O)c1c(C)nc2n(CCN3CCOCC3)c3ccccc3n12", "remaining compound [%]": 30.1}
{"Compound": "CC(C)c1ccc(-c2cn3c4ccccc4nc3n2CCN2CCCCC2)cc1", "remaining compound [%]": 12}
{"Compound": "Clc1ccc(-c2nc3ncccn3c2Nc2ccccc2)cc1", "remaining compound [%]": 31.4}
{"Compound": "COc1cc(C)c(Cl)cc1S(=O)(=O)Nc1ccc(Nc2cc(N(C)C)nc(C)n2)cc1", "remaining compound [%]": 76.8}
{"Compound": "CN1C(=O)c2cccc(-c3cc(Cl)cc(Cl)c3)c2C1(C)C", "remaining compound [%]": 73.4}
{"Compound": "CCN(CC)c1ncc(CNc2ccc(F)cn2)s1", "remaining compound [%]": 17.9}
{"Compound": "CCC(C)(C)C1CCC2(CC1)NC(=O)N(CC(=O)N1CCC(N3CCNC3=O)CC1)C2=O (centres unmarked)", "remaining compound [%]": 62.6}
{"Compound": "O=c1oc2ncn(-c3ccccc3)c2c2ccccc12", "remaining compound [%]": 23.1}
{"Compound": "COc1ccccc1N1C[C@@H]2C[C@@H](c3nccn3-c3cccc(C)c3)N3CCC[C@@]23C1=O", "remaining compound [%]": 29.3}
{"data": "Single results of other studies"}
{"Structure (SMILES)": "O=C([C@H]1C[C@H](O)CN1c1ccc(Cl)cc1)N1CC2COCC(C1)N2Cc1ccc(Cl)cc1", "target": "D(4) dopamine receptor (DRD4, Homo sapiens, UniProt P21917)", "read-out": "binding", "technique": "radioligand binding", "endpoint": "pKi", "value": "< 5.00"}
{"Structure (SMILES)": "Cc1cc(C)c(-n2ccn3nc(-c4cccnc4)cc23)cc1NC(=O)c1cc(C#N)cc(S(F)(F)(F)(F)F)c1", "target": "Discoidin domain-containing receptor 2 (DDR2, Homo sapiens, UniProt Q16832)", "read-out": "target engagement in cells", "technique": "BRET", "endpoint": "pIC50", "value": 8.35}
{"note": "For quick reference, copied from above (set 1):"}
{"Structure (SMILES)": "COc1ccc(-c2[nH]c3ncccc3c2CN2CCN(C)CC2)cc1", "inhibition [%]": 14.5}
{"Structure (SMILES)": "O=C1NC(=O)C(c2c[nH]c3ccccc23)=C1c1c[nH]c2ccccc12", "inhibition [%]": 78.7}
{"Structure (SMILES)": "NS(=O)(=O)c1ccc(NN=C2C(=O)Nc3ccc(Br)cc32)cc1", "inhibition [%]": 22.2}
